Published values pooled from the literature.
Protocols differ between the studies behind these lines. Values joined by “and” are separate records of one study, mostly repeats; a detail may differ.
Organism: Mycobacterium tuberculosis

COc1ccc2sc(Nc3nc(-c4ccccn4)cs3)nc2c1
IC50 (microbial growth): 17.2 µM

Cc1ccn2c(C(=O)NCc3ccccc3)c(C)nc2c1
MIC (optical density; H37Rv; 144 h): 2.5 µM

Cc1cc(Oc2nc(N3CC[C@@H](c4ccncc4)C3)ncc2F)[nH]n1
normalised growth (OD; H37Rv PurF CRISPRi knockdown; 0.125 µM, together with: anhydrotetracycline low): 3% and 2%

CCC(CO)NCCNC(CC)CO.COC(=O)C=C1SC(=NN=Cc2ccc(OC(=O)CN3C(=O)CSC3=O)cc2)NC1=O
MIC (growth in combination; 192; together with: reference drug at 1/2 MIC): 0.5 µg/mL

O=C(CCC1CCCCC1)Nc1cccc(-c2nnc(-c3ccco3)o2)c1
IC50 (bacterial growth, inhibitor; mmpL3-TetON): 2.4 µM

CCC(CO)NCCNC(CC)CO.CCOc1cc(C=NNC(=O)c2ccccn2)ccc1OC(=O)CN1C(=O)CSC1=O
FICI (two-drug checkerboard; H37Rv; concentration not given, unit not given; lower means more synergy): 2

Cc1cc(C)c2cc(C(=O)NC3CCCCCC3)[nH]c2c1
IC50 (microbial growth): 0.21 µM

CCC(CO)NCCNC(CC)CO.COc1cc(C=NNC(=O)c2ccncc2)ccc1OC(=O)CN1C(=O)CSC1=O
MIC (growth in combination; 192; together with: reference drug at 1/2 MIC): 0.5 µg/mL

CCc1nc2ccc(Cl)cn2c1C(=O)NC/C=C(\C)CC/C=C(\C)CCC=C(C)C
MIC (optical density; H37Rv; 144 h): > 10 µM

Excerpt of the above:
CCc1nc2ccc(Cl)cn2c1C(=O)NC/C=C(\C)CC/C=C(\C)CCC=C(C)C
MIC (optical density; H37Rv; 144 h): > 10 µM
